Literature values as cited in several papers.
Protocols differ between the studies behind these lines. ± marks the error that the study gave.
Chain of UniProt Q9HBY8 (whole entry, looked up): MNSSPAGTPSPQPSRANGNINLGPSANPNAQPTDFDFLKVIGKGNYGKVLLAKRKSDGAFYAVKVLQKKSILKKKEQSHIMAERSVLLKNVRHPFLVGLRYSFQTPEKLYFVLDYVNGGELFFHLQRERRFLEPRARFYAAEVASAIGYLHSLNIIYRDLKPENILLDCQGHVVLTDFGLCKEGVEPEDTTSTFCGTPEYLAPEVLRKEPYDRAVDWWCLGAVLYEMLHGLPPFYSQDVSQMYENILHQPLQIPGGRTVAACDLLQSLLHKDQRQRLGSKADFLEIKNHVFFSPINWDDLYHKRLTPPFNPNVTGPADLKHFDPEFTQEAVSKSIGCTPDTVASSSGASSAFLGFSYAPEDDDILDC

Structure (SMILES)	tested on	test	system	setting	how to read	quantity	result
CC(=O)O[C@@]12CO[C@@H]1C[C@H](O)[C@@]1(C)C(=O)[C@H](O)C3=C(C)[C@@H](OC(=O)[C@H](O)[C@@H](NC(=O)OC(C)(C)C)c4ccccc4)C[C@@](O)([C@@H](OC(=O)c4ccccc4)[C@H]21)C3(C)C	PC3-TxR					IC50	28.2 nM
O=c1c(-c2ccc(O)cc2)coc2cc(O)cc(O)c12	NIH3T3	mitogenic effect		with: insulin		IC50	19000 nM
C[C@H]1COCCN1c1nc(-c2cnc(N)cc2C(F)F)nc(N2CCOCC2)n1	786-O					GI50	703 nM
COc1cc2c(Oc3ccc4[nH]c(C)cc4c3F)ncnc2cc1OCCCN1CCCC1	A 172					IC50	1710 nM
Cc1[nH]c2ccccc2c1CCNCc1ccc(/C=C/C(=O)NO)cc1	neonatal foreskin fibroblasts	cell growth				IC50	70 ± 10 nM
COc1cccc2c1C(=O)c1c(O)c3c(c(O)c1C2=O)C[C@@](O)(C(=O)CO)C[C@@H]3O[C@H]1C[C@H](N)[C@H](O)[C@H](C)O1	human fibroblasts	cell viability				IC50	1800 nM
CNC(C)C1CCC(N)C(OC2C(N)CC(N)C(OC3OCC(C)(O)C(NC)C3O)C2O)O1 (stereo not drawn)	Escherichia coli		clinical isolate RKI-No_75/15			MIC	> 8 µg/mL
CCc1c2c(nc3ccc(OC(=O)N4CCC(N5CCCCC5)CC4)cc13)-c1cc3c(c(=O)n1C2)COC(=O)[C@]3(O)CC	LoVo					IC50	15800 nM
C/C=C1\NC(=O)[C@H]2CSSCC/C=C/[C@H](CC(=O)N[C@H](C(C)C)C(=O)N2)OC(=O)[C@H](C(C)C)NC1=O	HEK293	cell growth				IC50	< 5 nM
CC(F)(F)c1cc(F)ccc1-c1sc2cc(O)ccc2c1Oc1ccc(/C=C/C(=O)O)cc1	MCF7	cell proliferation		with: insulin		IC50	6 nM
C[C@@H](c1ccc2nccn2c1)n1nnc2ncc(-c3cnn(C)c3)nc21	T98G					IC50	13500 nM
N=C(N)c1ccc(Nc2ccc(-c3cc4ccc(C(=N)N)cc4[nH]3)cc2)cc1	HeLa	cell proliferation				IC50	2270 nM
Cc1c(C)c2c(c(C)c1O)CCC(C)(COc1ccc(CC3SC(=O)NC3=O)cc1)O2 (stereo not drawn)	primary human hepatocyte spheroids	cell viability		3 days		IC50	< 40000 nM
CO[C@H]1C[C@@H]2CC[C@@H](C)[C@@](O)(O2)C(=O)C(=O)N2CCCC[C@H]2C(=O)O[C@H]([C@H](C)C[C@@H]2CC[C@@H](O)[C@H](OC)C2)CC(=O)[C@H](C)/C=C(\C)[C@@H](O)[C@@H](OC)C(=O)[C@H](C)C[C@H](C)/C=C/C=C/C=C/1C	A 172					IC50	40 nM
CN(C)c1ccc(C(=O)N(CC(=O)NCc2ccccc2)Cc2ccc(C(=O)Nc3ccccc3N)cc2)cc1	A2780	cellular HDAC activity, inhibitor		with: Boc-Lys(ε-Ac)-AMC substrate		IC50	1220 ± 80 nM
CNC(=O)c1cc(Oc2ccc(NC(=O)Nc3ccc(Cl)c(C(F)(F)F)c3)cc2)ccn1	A 172					IC50	7220 nM
O=C(/C=C/c1cccc(S(=O)(=O)Nc2ccccc2)c1)NO	neonatal foreskin fibroblasts	cell growth				IC50	2370 ± 1610 nM

Structure (SMILES)	tested on	test	system	setting	how to read	quantity	result
C=CC(=O)Nc1cc(Nc2nccc(-c3cn(C)c4ccccc34)n2)c(OC)cc1N(C)CCN(C)C	T98G					IC50	12400 nM
Nc1nc(Cl)nc2c1ncn2[C@H]1C[C@H](O)[C@@H](CO)O1	RPMI-8226					IC50	~750 nM
CC[C@@]1([C@@H]2O[C@@H]([C@H]3O[C@@](O)(CO)[C@H](C)C[C@@H]3C)C[C@@H]2C)CC[C@H]([C@]2(C)CC[C@]3(C[C@H](O)[C@@H](C)[C@@H]([C@@H](C)[C@@H](OC)[C@H](C)C(=O)O)O3)O2)O1	U-118 MG	cell viability		3D mini-ring		IC50	613 nM
Cc1[nH]c(C)c(-c2ccc(Oc3ccc(F)cc3)cc2)c(=O)c1Cl	Plasmodium falciparum	whole cell extended time	3D7	72 h		IC50	50 nM
Nc1cc(C(F)(F)F)c(-c2cc(N3CCOCC3)nc(N3CCOCC3)n2)cn1	T98G					IC50	3250 nM
O=c1ncccn1[C@@H]1O[C@H](CO)[C@@H](O)[C@H]1O	A2780/CP cisplatin-resistant					IC50	152000 nM
Cc1cn(-c2cc(NC(=O)c3ccc(C)c(Nc4nccc(-c5cccnc5)n4)c3)cc(C(F)(F)F)c2)cn1	MCF-7					IC50	403 nM
O=C(Nc1ccccc1O)c1ccc(S(=O)(=O)c2ccc(Cl)cc2)cc1	Plasmodium falciparum	whole cell extended time	3D7	72 h		IC50	1350 nM
O=C(CBr)NCCc1c[nH]c2ccccc12	rat pinealocytes					IC50	400 nM
Cc1c(C#N)cccc1[C@@H](C)Nc1nnc(C)c2cnc(N3CCOCC3)cc12	HCC1438	In-Cell Western, item: pERK				IC50	46.8 ± 15.4 nM
CC(=O)O[C@H](C)C(=O)CCCCC[C@@H]1NC(=O)[C@H]2CCCN2C(=O)[C@H](Cc2ccccc2)NC(=O)C(C)(C)NC1=O	Jurkat					IC50	127 nM
CC(C)(C)c1nc(-c2cccc(NS(=O)(=O)c3c(F)cccc3F)c2F)c(-c2ccnc(N)n2)s1	A 172					IC50	52100 nM
Nc1cc(C(F)(F)F)c(-c2nc(N3CCOCC3)nc(N3CCOCC3)n2)cn1	Serine/threonine-protein kinase Sgk2 (SGK2, Homo sapiens, UniProt Q9HBY8)	enzyme activity		10 µM	baseline: untreated	remaining activity	96%
O=c1[nH]cc(F)c(=O)[nH]1	HeLa					IC50	619000 nM
CC(=O)Nc1cccc(-n2c(=O)n(C3CC3)c(=O)c3c(Nc4ccc(I)cc4F)n(C)c(=O)c(C)c32)c1	T98G					IC50	10300 nM
CC1(C)S[C@@H]2[C@H](NC(=O)[C@H](N)c3ccccc3)C(=O)N2[C@H]1C(=O)O	Escherichia coli		clinical isolate RKI-No_515/16			MIC	> 16 µg/mL

Repeated from above:
Structure (SMILES)	tested on	test	system	setting	how to read	quantity	result
Cc1c(C)c2c(c(C)c1O)CCC(C)(COc1ccc(CC3SC(=O)NC3=O)cc1)O2 (stereo not drawn)	primary human hepatocyte spheroids	cell viability		3 days		IC50	< 40000 nM
CO[C@H]1C[C@@H]2CC[C@@H](C)[C@@](O)(O2)C(=O)C(=O)N2CCCC[C@H]2C(=O)O[C@H]([C@H](C)C[C@@H]2CC[C@@H](O)[C@H](OC)C2)CC(=O)[C@H](C)/C=C(\C)[C@@H](O)[C@@H](OC)C(=O)[C@H](C)C[C@H](C)/C=C/C=C/C=C/1C	A 172					IC50	40 nM
CN(C)c1ccc(C(=O)N(CC(=O)NCc2ccccc2)Cc2ccc(C(=O)Nc3ccccc3N)cc2)cc1	A2780	cellular HDAC activity, inhibitor		with: Boc-Lys(ε-Ac)-AMC substrate		IC50	1220 ± 80 nM
CNC(=O)c1cc(Oc2ccc(NC(=O)Nc3ccc(Cl)c(C(F)(F)F)c3)cc2)ccn1	A 172					IC50	7220 nM
O=C(/C=C/c1cccc(S(=O)(=O)Nc2ccccc2)c1)NO	neonatal foreskin fibroblasts	cell growth				IC50	2370 ± 1610 nM
